# Published values collected from several papers.
# Each line is one published result; not all experiments were run side by side. “And” joins repeats or separate records; there may be more than shown. Numbers after ± are the reported error.
# Beta-lactamase CTX-M-27: Beta-lactamase CTX-M-27 (Escherichia coli, UniProt Q840M4)
# UniProt Q13526, sequence (whole entry, unmodified, looked up): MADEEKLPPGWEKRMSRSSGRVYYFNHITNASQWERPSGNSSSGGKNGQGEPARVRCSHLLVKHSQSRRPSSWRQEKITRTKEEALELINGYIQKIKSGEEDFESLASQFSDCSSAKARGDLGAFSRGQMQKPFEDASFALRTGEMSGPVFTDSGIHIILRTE
# UniProt Q99828, sequence (whole entry, looked up): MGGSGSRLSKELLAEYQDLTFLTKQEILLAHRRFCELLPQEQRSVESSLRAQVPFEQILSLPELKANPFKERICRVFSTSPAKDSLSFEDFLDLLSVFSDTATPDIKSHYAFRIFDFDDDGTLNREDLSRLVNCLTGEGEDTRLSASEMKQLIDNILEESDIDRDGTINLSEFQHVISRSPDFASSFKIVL
# UniProt Q00987, sequence (whole entry, looked up): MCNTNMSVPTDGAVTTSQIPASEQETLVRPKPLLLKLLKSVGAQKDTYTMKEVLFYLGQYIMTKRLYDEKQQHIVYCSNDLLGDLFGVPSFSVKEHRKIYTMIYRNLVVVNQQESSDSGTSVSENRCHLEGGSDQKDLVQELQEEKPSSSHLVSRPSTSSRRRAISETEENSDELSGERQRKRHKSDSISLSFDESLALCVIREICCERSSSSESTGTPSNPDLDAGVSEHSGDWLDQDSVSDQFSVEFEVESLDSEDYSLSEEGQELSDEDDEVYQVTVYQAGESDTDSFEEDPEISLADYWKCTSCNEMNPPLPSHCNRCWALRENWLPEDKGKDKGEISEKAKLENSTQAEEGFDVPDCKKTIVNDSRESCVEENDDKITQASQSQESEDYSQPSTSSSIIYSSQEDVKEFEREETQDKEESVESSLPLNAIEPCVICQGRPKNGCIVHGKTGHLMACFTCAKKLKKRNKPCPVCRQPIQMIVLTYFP
# UniProt Q8VD00, sequence (whole entry, looked up): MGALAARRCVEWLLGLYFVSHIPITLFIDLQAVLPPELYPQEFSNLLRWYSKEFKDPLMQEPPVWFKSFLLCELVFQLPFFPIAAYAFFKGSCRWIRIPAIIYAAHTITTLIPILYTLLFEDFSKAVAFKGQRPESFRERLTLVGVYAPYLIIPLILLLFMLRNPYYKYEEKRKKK
# UniProt P55072, sequence (whole entry, looked up): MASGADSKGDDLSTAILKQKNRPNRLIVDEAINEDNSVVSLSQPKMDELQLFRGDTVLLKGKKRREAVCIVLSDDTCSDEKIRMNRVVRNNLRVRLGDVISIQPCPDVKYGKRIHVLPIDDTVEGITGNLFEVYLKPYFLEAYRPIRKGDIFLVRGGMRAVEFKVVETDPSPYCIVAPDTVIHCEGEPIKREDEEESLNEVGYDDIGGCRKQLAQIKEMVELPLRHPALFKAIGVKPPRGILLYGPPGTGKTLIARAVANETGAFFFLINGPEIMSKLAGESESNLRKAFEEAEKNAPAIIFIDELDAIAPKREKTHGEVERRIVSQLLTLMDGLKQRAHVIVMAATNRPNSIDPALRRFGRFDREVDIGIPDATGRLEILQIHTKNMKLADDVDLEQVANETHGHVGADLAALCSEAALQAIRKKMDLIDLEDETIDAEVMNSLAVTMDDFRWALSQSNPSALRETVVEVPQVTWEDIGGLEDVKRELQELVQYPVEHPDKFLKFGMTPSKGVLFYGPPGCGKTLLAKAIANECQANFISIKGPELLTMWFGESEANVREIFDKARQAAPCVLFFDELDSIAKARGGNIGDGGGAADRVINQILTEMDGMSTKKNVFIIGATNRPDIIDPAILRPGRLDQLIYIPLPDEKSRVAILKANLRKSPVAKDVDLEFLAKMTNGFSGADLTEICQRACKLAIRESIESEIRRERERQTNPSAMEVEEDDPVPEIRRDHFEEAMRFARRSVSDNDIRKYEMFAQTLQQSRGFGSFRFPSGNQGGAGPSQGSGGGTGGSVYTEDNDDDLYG
# UniProt P02458, sequence (whole entry, looked up): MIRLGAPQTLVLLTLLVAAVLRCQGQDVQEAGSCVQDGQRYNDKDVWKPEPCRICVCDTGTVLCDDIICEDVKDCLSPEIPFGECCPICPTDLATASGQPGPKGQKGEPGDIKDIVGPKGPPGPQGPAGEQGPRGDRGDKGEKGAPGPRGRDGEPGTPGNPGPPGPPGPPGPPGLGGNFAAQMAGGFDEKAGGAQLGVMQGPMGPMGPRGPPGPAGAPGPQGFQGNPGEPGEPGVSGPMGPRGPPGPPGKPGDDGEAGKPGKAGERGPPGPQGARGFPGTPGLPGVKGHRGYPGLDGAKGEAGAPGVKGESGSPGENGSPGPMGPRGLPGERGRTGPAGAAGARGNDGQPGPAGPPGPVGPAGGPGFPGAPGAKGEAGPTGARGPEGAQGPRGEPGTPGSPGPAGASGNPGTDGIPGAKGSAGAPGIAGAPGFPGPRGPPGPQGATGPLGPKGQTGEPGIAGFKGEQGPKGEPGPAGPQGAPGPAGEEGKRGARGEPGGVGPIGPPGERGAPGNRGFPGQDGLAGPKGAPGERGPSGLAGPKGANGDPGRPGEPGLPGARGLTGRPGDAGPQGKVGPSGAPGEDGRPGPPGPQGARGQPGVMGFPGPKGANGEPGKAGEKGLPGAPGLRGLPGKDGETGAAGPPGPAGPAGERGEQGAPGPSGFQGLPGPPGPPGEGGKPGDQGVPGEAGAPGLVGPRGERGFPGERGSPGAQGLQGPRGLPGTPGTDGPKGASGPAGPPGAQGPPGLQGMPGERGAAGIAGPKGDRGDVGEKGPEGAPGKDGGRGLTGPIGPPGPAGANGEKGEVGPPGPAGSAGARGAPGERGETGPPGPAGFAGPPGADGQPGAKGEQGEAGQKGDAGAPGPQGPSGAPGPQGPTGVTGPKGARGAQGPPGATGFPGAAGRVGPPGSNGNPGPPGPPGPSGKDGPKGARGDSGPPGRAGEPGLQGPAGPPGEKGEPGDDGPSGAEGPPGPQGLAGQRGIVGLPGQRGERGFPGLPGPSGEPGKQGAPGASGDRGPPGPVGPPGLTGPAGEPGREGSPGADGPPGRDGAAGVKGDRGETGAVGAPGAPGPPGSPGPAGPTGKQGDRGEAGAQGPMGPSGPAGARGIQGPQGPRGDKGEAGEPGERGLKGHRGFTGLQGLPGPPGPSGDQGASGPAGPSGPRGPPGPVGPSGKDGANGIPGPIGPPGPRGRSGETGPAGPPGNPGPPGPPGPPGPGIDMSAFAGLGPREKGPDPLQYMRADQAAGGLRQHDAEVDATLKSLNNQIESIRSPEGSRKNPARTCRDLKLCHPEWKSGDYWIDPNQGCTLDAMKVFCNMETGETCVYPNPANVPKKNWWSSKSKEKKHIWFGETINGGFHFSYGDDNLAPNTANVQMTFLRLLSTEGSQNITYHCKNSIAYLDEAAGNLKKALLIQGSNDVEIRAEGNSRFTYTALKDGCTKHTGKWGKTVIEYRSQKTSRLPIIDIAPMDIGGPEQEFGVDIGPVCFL
# UniProt Q5VT52, sequence (whole entry, looked up): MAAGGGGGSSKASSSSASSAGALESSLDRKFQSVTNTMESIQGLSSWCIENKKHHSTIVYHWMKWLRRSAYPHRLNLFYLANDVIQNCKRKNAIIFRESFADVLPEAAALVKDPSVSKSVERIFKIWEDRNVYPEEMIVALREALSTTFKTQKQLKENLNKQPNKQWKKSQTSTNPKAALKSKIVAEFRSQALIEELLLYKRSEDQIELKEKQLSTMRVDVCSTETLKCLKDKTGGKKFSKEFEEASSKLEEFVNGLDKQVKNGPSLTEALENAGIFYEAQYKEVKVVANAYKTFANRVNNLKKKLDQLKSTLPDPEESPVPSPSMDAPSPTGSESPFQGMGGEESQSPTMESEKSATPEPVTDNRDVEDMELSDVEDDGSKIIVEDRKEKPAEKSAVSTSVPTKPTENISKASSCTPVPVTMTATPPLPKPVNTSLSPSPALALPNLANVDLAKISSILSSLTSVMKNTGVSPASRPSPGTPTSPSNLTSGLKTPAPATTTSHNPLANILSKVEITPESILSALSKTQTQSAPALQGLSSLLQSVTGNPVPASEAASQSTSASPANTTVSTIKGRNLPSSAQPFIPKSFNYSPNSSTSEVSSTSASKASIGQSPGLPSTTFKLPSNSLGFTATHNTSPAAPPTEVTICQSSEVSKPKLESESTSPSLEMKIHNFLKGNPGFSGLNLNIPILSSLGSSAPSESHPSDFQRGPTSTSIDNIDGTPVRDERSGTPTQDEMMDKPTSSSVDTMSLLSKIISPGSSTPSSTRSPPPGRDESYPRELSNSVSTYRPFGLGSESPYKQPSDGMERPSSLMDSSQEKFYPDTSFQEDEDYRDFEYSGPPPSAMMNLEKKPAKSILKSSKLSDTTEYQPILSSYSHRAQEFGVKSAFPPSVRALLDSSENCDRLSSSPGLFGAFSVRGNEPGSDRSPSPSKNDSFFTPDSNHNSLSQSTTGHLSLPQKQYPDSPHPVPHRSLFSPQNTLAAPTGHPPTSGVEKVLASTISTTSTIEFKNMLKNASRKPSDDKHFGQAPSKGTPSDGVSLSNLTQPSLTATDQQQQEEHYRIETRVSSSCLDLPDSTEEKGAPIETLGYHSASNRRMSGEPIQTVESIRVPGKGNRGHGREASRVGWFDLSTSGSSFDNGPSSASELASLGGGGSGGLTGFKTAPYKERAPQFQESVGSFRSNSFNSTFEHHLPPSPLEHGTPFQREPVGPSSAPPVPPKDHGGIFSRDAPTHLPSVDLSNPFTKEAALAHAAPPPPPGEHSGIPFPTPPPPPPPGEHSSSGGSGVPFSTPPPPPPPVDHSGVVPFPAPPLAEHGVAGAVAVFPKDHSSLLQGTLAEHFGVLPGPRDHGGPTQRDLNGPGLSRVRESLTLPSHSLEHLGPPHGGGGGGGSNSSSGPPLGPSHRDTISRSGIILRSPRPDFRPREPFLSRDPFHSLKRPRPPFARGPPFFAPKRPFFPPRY
# UniProt Q8JGN5, sequence (whole entry, looked up): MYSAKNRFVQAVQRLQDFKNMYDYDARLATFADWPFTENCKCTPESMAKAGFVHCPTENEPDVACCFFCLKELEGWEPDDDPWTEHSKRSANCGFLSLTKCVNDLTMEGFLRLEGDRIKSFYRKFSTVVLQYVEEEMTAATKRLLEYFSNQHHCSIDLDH
SMILES,target,test,test system,conditions,Kd
CSCC[C@H](NC(=O)[C@H](C)NC(=O)CNC(=O)[C@H](Cc1ccc(O)cc1)NC(=O)[C@H](Cc1c[nH]c2ccccc12)NC(=O)[C@H](Cc1ccccc1)NC(=O)[C@H](CO)NC(=O)CNC(=O)CNC(=O)[C@H](CC(=O)O)NC(=O)[C@H](CCC(=O)O)NC(=O)[C@H](CCC(N)=O)NC(=O)[C@@H]1CCCN1C(=O)[C@H](CCCNC(=N)N)NC(=O)[C@H](CCCNC(=N)N)NC(=O)[C@H](CCCNC(=N)N)NC(=O)[C@H](CCC(N)=O)NC(=O)[C@H](CCCNC(=N)N)NC(=O)[C@H](CCCNC(=N)N)NC(=O)[C@H](CCCCN)NC(=O)[C@H](CCCCN)NC(=O)[C@H](CCCNC(=N)N)NC(=O)CN)C(=O)N[C@@H](CCCCN)C(=O)N[C@@H](C)C(=O)N[C@@H](CC(C)C)C(=O)N[C@@H](Cc1ccc(O)cc1)C(=O)NCC(N)=O,"CIB1 (Homo sapiens, UniProt Q99828)","peptide binding, inhibitor, TR-FRET competition",,"pH 7.5, 1 mM calcium, with: 30 nM Alexa647-labelled peptide",0.192 ± 0.017 µM
COC(=O)[C@H](Cc1ccccc1)NC(=O)[C@@H]1CCCN1C(=O)[C@H](CCC(=O)O)NC(=O)C(C)NC(C)=O (stereo in doubt),"Peptidyl-prolyl cis-trans isomerase NIMA-interacting 4 (Homo sapiens, UniProt Q9Y237)","binding, label-free Epic",PBS,"pH 7.4, 0.5% DMSO",18.6 ± 11.5 µM
O=C(Nc1cccc(-c2nn[nH]n2)c1)c1cc(-n2ccnn2)cc(C(F)(F)F)c1,Beta-lactamase CTX-M-27,surface plasmon resonance,,25 °C,4.16 ± 0.1 µM
COC(=O)[C@H](Cc1ccccc1)NC(=O)[C@@H]1CCCN1C(=O)[C@H](CCCCNC(=O)OCc1ccccc1)NC(=O)[C@H](C)NC(C)=O,"PIN1 (Homo sapiens, UniProt Q13526)",binding,,pH 7.4,70.2 µM and ~70 µM
COc1ccc(C)cc1NC(=O)OC1CC2CCCC(C1)N2Cc1ccc(CCF)cc1 (centres unmarked) [fluorine-18 labelled],"Tmem97 (Mus musculus, UniProt Q8VD00)","binding, radioligand saturation binding",EMT6 mouse breast tumour membranes,,~0.002 µM
C=C/C=C\CC[C@H]1O[C@H]2CC[C@@]3(C)O[C@H]4[C@@H](O)C[C@@]5(C)O[C@@H](CC/C=C(C)/C(C)=C/C=N/NC(=O)CCC6=[N+]7C(=Cc8c(C)cc(C)n8[B-]7(F)F)C=C6)[C@@H](C)C[C@@H]5O[C@@H]4C[C@@H]3O[C@@H]2CC[C@]1(C)O,brevenal binding site (rat),saturation binding,rat brain synaptosomes,,0.264 ± 0.046 µM
C[C@@H]1NC(=O)[C@H](CCCNC(=N)N)NC(=O)[C@H](Cc2ccc3ccccc3c2)NC(=O)[C@@H]2CCCCN2C(=O)[C@@H]([C@H](C)OP(=O)(O)O)NC(=O)CN(C)C(=O)[C@@H](C)NC(=O)c2cc3cc(c2)C(=O)NC[C@@H](C(=O)N[C@@H](CCCCN)C(N)=O)NC(=O)[C@H](CCCNC(=N)N)NC(=O)[C@H](CCCNC(=N)N)NC(=O)[C@H](CCCNC(=N)N)NC(=O)[C@H](CCCNC(=N)N)NC(=O)[C@H](Cc2ccc4ccccc4c2)NC(=O)[C@H](Cc2ccccc2)NC(=O)[C@H](CNC3=O)NC1=O,"PIN1 (Homo sapiens, UniProt Q13526, S16A/Y23A)","binding, fluorescence anisotropy",,,0.13 ± 0.044 µM
O=C(Nc1cccc(-c2nn[nH]n2)c1)c1cc(-c2ccco2)cc(C(F)(F)F)c1,Beta-lactamase CTX-M-27,surface plasmon resonance,,25 °C,2.5 ± 0.07 µM
C[C@H](NC(=O)[C@@H](N)Cc1ccc(O)cc1)C(=O)NCC(=O)N[C@@H](COP(=O)(O)O)C(=O)N[C@H](C(=O)N[C@@H](CC(=O)O)C(=O)N[C@@H](CCC(=O)O)C(=O)N[C@@H](CC(N)=O)C(=O)N[C@H](C(=O)N[C@@H](CC(=O)O)C(=O)N[C@@H](CO)C(=O)N[C@@H](CCC(=O)O)C(=O)O)[C@@H](C)O)[C@@H](C)OP(=O)(O)O,"Bifunctional polynucleotide phosphatase/kinase, FHA domain (Homo sapiens, UniProt Q96T60)","binding, reverse ITC",,FHA domain,2.23 µM
CC(C)C[C@H](NC(=O)[C@H](CCCNC(=N)N)NC(=O)CNC(=O)[C@H](CCCNC(=N)N)NC(=O)[C@H](Cc1ccc(O)cc1)NC(=O)[C@H](Cc1c[nH]c2ccccc12)NC(=O)CNC(=O)[C@H](Cc1c[nH]cn1)NC(=O)[C@H](Cc1c[nH]cn1)NC(=O)[C@H](Cc1c[nH]cn1)NC(=O)[C@H](Cc1c[nH]cn1)NC(=O)[C@H](CCCNC(=N)N)NC(=O)[C@H](CCCNC(=N)N)NC(=O)[C@H](CCCNC(=N)N)NC(=O)[C@H](CCCNC(=N)N)NC(=O)[C@H](CCCNC(=N)N)NC(=O)[C@H](Cc1c[nH]cn1)NC(=O)[C@H](Cc1c[nH]cn1)NC(=O)[C@H](Cc1c[nH]cn1)NC(=O)[C@H](Cc1c[nH]cn1)NC(=O)[C@H](CCCNC(=N)N)NC(=O)[C@H](CCCNC(=N)N)NC(=O)[C@H](CCCNC(=N)N)NC(=O)[C@H](CCCNC(=N)N)NC(=O)[C@H](CCCNC(=N)N)NC(=O)CNC(=O)[C@@H](N)CCCCN)C(=O)O,"Collagen alpha-1(II) chain (COL2A1, Homo sapiens, UniProt P02458)","binding, SPR",,,0.0205 µM
O=C(Nc1cccc(-c2nn[nH]n2)c1)c1cc(-n2cccn2)cc(C(F)(F)F)c1,Beta-lactamase CTX-M-27,surface plasmon resonance,,25 °C,2.19 ± 0.06 µM
C[C@H](N)C(=O)N[C@@H](CCCNC(=N)N)C(=O)N[C@H](C(=O)N[C@@H](CCCCN)C(=O)N[C@@H](CCC(N)=O)C(=O)N[C@H](C(=O)N[C@@H](C)C(=O)N[C@@H](CCCNC(=N)N)C(=O)N[C@@H](CCCCN)C(=O)N[C@@H](CO)C(=O)N[C@H](C(=O)NCC(=O)O)[C@@H](C)O)[C@@H](C)O)[C@@H](C)OP(=O)(O)O,"Baculoviral IAP repeat-containing protein 5.1-A (birc5.1-a, Xenopus laevis, UniProt Q8JGN5)",ITC,,"pH 7.8, 25 °C",6.31 ± 0.58 µM
N[C@@H](Cc1ccc(O)c(I)c1)C(=O)O,"Iodotyrosine deiodinase (IYD, Thermotoga neapolitana, UniProt B9K712, Y112A)",FMN fluorescence quenching,,"25 °C, Y112A variant",0.03 ± 0.02 µM
CSCC[C@H](NC(=O)[C@@H](NC(=O)[C@H](CC(C)C)NC(=O)[C@@H](NC(=O)[C@H](Cc1c[nH]cn1)NC(=O)CCCCCNC(=O)[C@H](CCCNC(=N)N)NC(=O)[C@H](CCCNC(=N)N)NC(=O)[C@H](CCCNC(=N)N)NC(=O)[C@H](CCC(N)=O)NC(=O)[C@H](CCCNC(=N)N)NC(=O)[C@H](CCCNC(=N)N)NC(=O)[C@H](CCCCN)NC(=O)[C@H](CCCCN)NC(=O)[C@H](CCCNC(=N)N)NC(=O)CNC(=O)[C@@H](N)Cc1ccc(O)cc1)C(C)C)C(C)C)C(=O)N[C@@H](CS)C(=O)N[C@@H](C)C(=O)N[C@H](C(N)=O)[C@@H](C)O,"VCP (Homo sapiens, UniProt P55072)","binding, BLI",,,14 µM
CC[C@H](C)[C@H](NC(=O)[C@H](CS)NC(=O)[C@H](CCC(N)=O)NC(=O)[C@H](CC(C)C)NC(=O)[C@H](CCCCN)NC(=O)[C@H](CCCNC(=N)N)NC(=O)[C@H](C)NC(=O)[C@@H](NC(=O)[C@H](CCC(N)=O)NC(=O)[C@@H](NC(=O)[C@H](CCC(=O)O)NC(=O)[C@H](C)NC(=O)[C@H](CCC(N)=O)NC(=O)[C@@H](N)Cc1c[nH]cn1)C(C)C)[C@@H](C)CC)C(=O)N[C@@H](C)C(=O)N[C@@H](CC(=O)O)C(=O)N[C@@H](CCC(N)=O)C(=O)N[C@@H](Cc1ccccc1)C(=O)N[C@@H](Cc1c[nH]cn1)C(=O)N[C@@H](CCCNC(=N)N)C(=O)N[C@@H](CC(C)C)C(=O)N[C@@H](Cc1c[nH]cn1)C(=O)N[C@H](C(=O)N[C@@H](CCC(N)=O)C(=O)N[C@@H](CCC(N)=O)C(=O)O)C(C)C,"BCL2 (Homo sapiens, UniProt P10415, Y108A)",fluorescence polarization,,fluorescently labelled compound,> 100 µM
N=C(N)NCCC[C@H](NC(=O)[C@H](Cc1ccccc1)NC(=O)[C@@H]1CCCN1C(=O)[C@H](CO)NC(=O)[C@H](Cc1ccccc1)NC(=O)CNC(=O)[C@@H]1CCCN1C(=O)[C@@H]1CCCN1C(=O)[C@@H](N)CCCNC(=N)N)C(=O)N[C@@H](CCCCNS(=O)(=O)c1ccc(C2=c3cc4c5c(c3Oc3c2cc2c6c3CCCN6CCC2)CCC[N+]=5CCC4)c(S(=O)(=O)[O-])c1)C(=O)O,"Oligopeptide-binding protein OppA (oppA, Lactococcus lactis subsp. lactis, UniProt Q07741)","binding, fluorescence anisotropy",,"pH 6, 24 °C, with: dye-labelled peptide",10.4 ± 0.4 µM
CC[C@H](C)[C@H](NC(=O)CNC(=O)[C@H](CCCNC(=N)N)NC(=O)[C@H](CCCCN)NC(=O)CNC(=O)[C@H](CC(N)=O)NC(=O)CNC(=O)CNC(=O)CNC(=O)[C@H](CC(C)C)NC(=O)[C@H](C)NC(=O)CNC(=O)[C@H](Cc1c[nH]c2ccccc12)NC(=O)[C@H](Cc1ccc(O)cc1)NC(=O)CNC(=O)[C@H](CCCNC(=N)N)NC(=O)[C@H](CCSC)NC(=O)CNC(=O)[C@H](CCCCN)NC(=O)[C@H](CC(N)=O)NC(=O)[C@H](Cc1ccccc1)NC(=O)[C@H](CCCCN)NC(=O)[C@@H](N)CC(N)=O)C(=O)N[C@@H](CCCNC(=N)N)C(=O)NCC(=O)N[C@@H](Cc1ccc(O)cc1)C(=O)N[C@@H](CC(=O)O)C(=O)O,"ERBB2 (Homo sapiens, UniProt P04626)","binding, SPR",,,0.346 µM
CC(=O)N(CC(=O)N(C)[C@@H](C)C(=O)N(Cc1c[nH]c2cc(Cl)ccc12)[C@@H](C)C(=O)N(C)[C@@H](C)C(=O)N(CCC(C)(C)C)[C@@H](C)C(=O)N1CCNCC1)Cc1ccccc1,"E3 ubiquitin-protein ligase Mdm2, N-terminal domain 17-125 (MDM2, Homo sapiens, UniProt Q00987)","binding, SPR steady-state affinity",PBS with Tween,"10 °C, immobilised peptoid",0.35 µM
C[C@@H](O)[C@H](NC(=O)[C@@H]1CCCN1C(=O)[C@H](CO)NC(=O)[C@H](Cc1ccc(O)cc1)NC(=O)[C@H](CO)NC(=O)[C@@H]1CCCN1C(=O)[C@H](COP(=O)(O)O)NC(=O)[C@@H](NC(=O)[C@@H]1CCCN1C(=O)[C@H](CO)NC(=O)[C@H](Cc1ccc(O)cc1)NC(=O)[C@H](CO)NC(=O)[C@@H]1CCCN1C(=O)[C@@H](N)CO)[C@@H](C)O)C(=O)N[C@@H](COP(=O)(O)O)C(=O)N1CCC[C@H]1C(=O)N[C@@H](CO)C(=O)N[C@@H](Cc1ccc(O)cc1)C(=O)N[C@@H](CO)C(=O)O,"Regulation of nuclear pre-mRNA domain-containing protein 2 (Homo sapiens, UniProt Q5VT52)","binding, ITC",,pH 7.5,> 1000 µM
CC(C)C[C@H](NC(=O)CNC(=O)[C@@H](NC(=O)[C@H](CO)NC(=O)[C@H](CCCCN)NC(=O)[C@H](CC(C)C)NC(=O)C1(NC(=O)[C@H](CCC(=O)O)NC(=O)[C@H](CC(C)C)NC(=O)[C@@H](N)C(C)C)CC(C)(C)N([O])C(C)(C)C1)C(C)C)C(=O)N[C@@H](Cc1ccccc1)C(=O)O,"Rhodopsin (RHO, Bos taurus, UniProt P02699)",,,,10 µM

# Repeated from above:
SMILES,target,test,test system,conditions,Kd
CC(C)C[C@H](NC(=O)[C@H](CCCNC(=N)N)NC(=O)CNC(=O)[C@H](CCCNC(=N)N)NC(=O)[C@H](Cc1ccc(O)cc1)NC(=O)[C@H](Cc1c[nH]c2ccccc12)NC(=O)CNC(=O)[C@H](Cc1c[nH]cn1)NC(=O)[C@H](Cc1c[nH]cn1)NC(=O)[C@H](Cc1c[nH]cn1)NC(=O)[C@H](Cc1c[nH]cn1)NC(=O)[C@H](CCCNC(=N)N)NC(=O)[C@H](CCCNC(=N)N)NC(=O)[C@H](CCCNC(=N)N)NC(=O)[C@H](CCCNC(=N)N)NC(=O)[C@H](CCCNC(=N)N)NC(=O)[C@H](Cc1c[nH]cn1)NC(=O)[C@H](Cc1c[nH]cn1)NC(=O)[C@H](Cc1c[nH]cn1)NC(=O)[C@H](Cc1c[nH]cn1)NC(=O)[C@H](CCCNC(=N)N)NC(=O)[C@H](CCCNC(=N)N)NC(=O)[C@H](CCCNC(=N)N)NC(=O)[C@H](CCCNC(=N)N)NC(=O)[C@H](CCCNC(=N)N)NC(=O)CNC(=O)[C@@H](N)CCCCN)C(=O)O,"Collagen alpha-1(II) chain (COL2A1, Homo sapiens, UniProt P02458)","binding, SPR",,,0.0205 µM
O=C(Nc1cccc(-c2nn[nH]n2)c1)c1cc(-n2cccn2)cc(C(F)(F)F)c1,Beta-lactamase CTX-M-27,surface plasmon resonance,,25 °C,2.19 ± 0.06 µM
